Measured values from different studies.
Numbered parts are unrelated; each lists some results of a single study.

Series 1
Target: Sal-like protein 4, full length isoform B (SALL4, Homo sapiens, UniProt Q9UJQ4-2, residues 1-616)
Technique: universal PBM
Form: double-stranded DNA, one strand shown
Sample: in vitro
Tested at: not given
Notes: 8-mer, flanks averaged, mean of replicates
Direction: higher = stronger binding
| Strand | E-score |
| --- | --- |
| AGTAACAT | 0.113 |
| ACAAATCC | 0.126 |
| AGGCCACG | -0.227 |
| TCGAACCA | -0.198 |
| AGGTGACG | -0.237 |
| CACTCCCG | -0.101 |
| GCGGTTAA | -0.0103 |
| GTTTTAGA | 0.0892 |
| AGAAGGCA | -0.016 |
| ACTAGAAA | 0.239 |
| CCGGCTCA | -0.0686 |
| AACGTCTT | 0.0349 |
| CACGTGAG | -0.147 |
| AAAGTTCA | 0.164 |
| AGTGTGCG | -0.186 |
| AACTCCTT | 0.0365 |
| CGGTGACG | -0.0771 |
| CACAGTAC | 0.0443 |
| CTGATAAC | 0.145 |
| AGCGGTCC | -0.177 |
| ATCAGTGC | -0.0506 |
| GGGAAGAC | -0.173 |
| ATAGCATG | 0.0695 |
| CCTGGAAA | 0.00999 |
| ACCTGCAA | -0.14 |

Series 2
Target: Histone acetyltransferase KAT6A, both winged helices, GST fusion (KAT6A, Homo sapiens, UniProt Q92794, residues 1-181)
Technique: protein binding microarray
Form: double-stranded DNA, one strand shown
Sample: in vitro
Tested at: not given
Notes: 8-mer, flanks averaged, mean of 2 arrays, mostly near background
Relative to: not given
Direction: higher = stronger binding
Construct (chain): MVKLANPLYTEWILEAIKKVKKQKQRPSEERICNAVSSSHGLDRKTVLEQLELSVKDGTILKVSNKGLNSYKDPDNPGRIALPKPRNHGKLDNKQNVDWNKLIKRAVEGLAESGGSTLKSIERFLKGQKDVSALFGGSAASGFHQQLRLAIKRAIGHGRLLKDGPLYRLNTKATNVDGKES
| Strand | E-score |
| --- | --- |
| ATAGAAAA | -0.124 |
| TGATAACA | -0.0471 |
| ATGGAAGC | -0.0683 |
| AGATGAAT | -0.169 |
| ACGATACC | -0.00581 |
| AAAACGAG | -0.00492 |
| ACGTACCA | -0.167 |
| GGCTGACA | 0.0564 |
| TGACATAA | -0.0518 |
| ACTTGGCG | -0.0937 |
| GGTTCTGA | 0.122 |
| CGTGGGAC | 0.1 |
| ATAGTAAA | -0.104 |
| AAGATCTA | -0.0598 |
| AATCGGTG | -0.031 |
| CCCTCGAA | -0.193 |
| CTCCCTGC | -0.125 |
| TCATGACA | 0.101 |
| GCGGGCCA | 0.191 |
| AATCTACG | 0.141 |
| CAAACGAA | 0.032 |

Series 3
Target: RNA binding protein fox-1 homolog 2, RRM domain, GST-SBP tag (RBFOX2, Homo sapiens, UniProt O43251-10, residues 100-194)
Technique: RNA Bind-n-Seq
Form: RNA
Sample: in vitro
Tested at: 365 nM
Notes: natural RNA segment, single round, ends assumed
Relative to: no-protein control
Direction: higher = stronger binding
Residues (chain): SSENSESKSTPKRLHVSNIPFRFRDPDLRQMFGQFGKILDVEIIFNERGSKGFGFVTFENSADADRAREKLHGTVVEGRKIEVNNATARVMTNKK
| Strand | RBNS enrichment (R) |
| --- | --- |
| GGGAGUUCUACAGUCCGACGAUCUUCUCGGUCCUCACCAGCCCAUCACUUAUAGUGGGCUCAUCAGGAGGAGCAGGGGAGGAGGACAGAGGCCCCGCUGCCCGCUGCCUCCUUGGUCUCUAGAGGUAUUGAGAUGGAAUUCUCGGGUGCCAA | 0.63 |
| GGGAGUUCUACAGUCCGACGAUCCCUUUAAUCCCAGCACUUGGGAGGCAGAGGCAGGCGGAUUUCUGAGUUCCAGGCCAGCCUGGUCUACAGAGUGAGUCCAGGACAGCCAGGGCUAUACAGAGAACCCUGUCUGGAAUUCUCGGGUGCCAA | 0.199 |
| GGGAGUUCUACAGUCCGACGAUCUCUGCAUUUGAUAUAAUGCCUUAAUUACUGGGUCUACAAUUAAUGUUGACUGUUUUAGAUUGUAAGCUCCUGGAGAGCAGUAUUGCUGUAGUAGGAAUGUUUUAACAGUGUGGAAUUCUCGGGUGCCAA | 10.5 |
| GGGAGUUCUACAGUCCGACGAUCAGCUGCCAUUUCUGAGUCCUUGAGAGGCUGAGAAGGCUCUAGCUUUGUACUGUAUUCUUACUGUGUGACUAGAUGCGUGAGCGCUUUACAUUAGAAGGAACCUGGUUAGAUGGAAUUCUCGGGUGCCAA | 0.413 |
| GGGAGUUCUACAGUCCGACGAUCUGUGACAUUUAUAUAUUGAAUUAAUAUCCCUACAUGUAUUGCACAUUGUAAAAAGUUUUAGUUUUGAUGAGUUGUGAGUUUACCUUGUAUACUGUAGGCACACUUUGCACUGGAAUUCUCGGGUGCCAA | 0.629 |
| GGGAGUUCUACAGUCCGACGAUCUUGGACUCACUCUCUGUUCCACAAACAUAGAUGUAACCCUCUACCUCUCCUUACCCAACUUAUUACCACCAUACUGUGAUGUUUUGGGUUGUACAUUUUGUUUAAUAAAAUGGAAUUCUCGGGUGCCAA | 0.521 |
| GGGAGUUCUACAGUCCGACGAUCAGCGCCUUGAGUCAAGGCCACUUUUCAGCCCAUCGAGCCCUGAGUUCUACUUGGUGUUUGUUCUCUGGAGCUGAUUGCACUUGAGCUCUGUGGUGGGCAGGCGCACUUUAUGGAAUUCUCGGGUGCCAA | 0.897 |
| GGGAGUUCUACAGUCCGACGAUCGACACUAGAGAUGCCCAUUCCUACUCCCUCCCUUUGGUCACUAGCCACCAUUAUGGUUCCACUGGCUGUUUGUAUAUAGGGUUAUGUAUUAACUCUAGAAUCCCGUGUGCUGGAAUUCUCGGGUGCCAA | 0.757 |
| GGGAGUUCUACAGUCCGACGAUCCUACCUUAGAUACUAGUUGUCUGAAUUGAGUUACUUUGAUAGGAAAAAUACUUCAUUACCUAAAAUCAUUUUUCAUAGAACUGUUUCAGAAAACCUGACUCUAACUGGUUUGGAAUUCUCGGGUGCCAA | 0.535 |
| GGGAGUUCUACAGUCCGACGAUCAGGUAUUUCAUAACAAAAAUAUGUAUUUCUUUUUUGUUAUUUUAUCUUGAAAACGGUACAUAUUUUAGUAUUUGUGCAGAAAAACAAGUCCUAAAGUAUUUGUUUUUAUUUGGAAUUCUCGGGUGCCAA | 0.737 |
| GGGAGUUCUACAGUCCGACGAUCUGUUCUCCAAACACAAUGGAAUUUCUUGUUCAAGAGCAGCUUCCAGAGUUGAGCCAGCCCUCGCUGCCUUGGGUGCUUGCUUACCACCAGUCAAGGUUGCUCUGAACUUUUGGAAUUCUCGGGUGCCAA | 0.43 |
| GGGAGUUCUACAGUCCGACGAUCGUUGGGACUCGCUGUUGCCAUCCUCUUUGUUGUAUCUGGUUUUCAUCACUAGACUCAGCAACCCUUCUCACCUUAACUGCCACCUUCCCUACACUCUCAGUUUACAGAGGUGGAAUUCUCGGGUGCCAA | 0.378 |

Series 4
Target: Ras GTPase-activating protein-binding protein 1, C-terminal RGG region (G3BP1, Homo sapiens, UniProt Q13283)
UniProt Q13283, sequence (whole entry, looked up): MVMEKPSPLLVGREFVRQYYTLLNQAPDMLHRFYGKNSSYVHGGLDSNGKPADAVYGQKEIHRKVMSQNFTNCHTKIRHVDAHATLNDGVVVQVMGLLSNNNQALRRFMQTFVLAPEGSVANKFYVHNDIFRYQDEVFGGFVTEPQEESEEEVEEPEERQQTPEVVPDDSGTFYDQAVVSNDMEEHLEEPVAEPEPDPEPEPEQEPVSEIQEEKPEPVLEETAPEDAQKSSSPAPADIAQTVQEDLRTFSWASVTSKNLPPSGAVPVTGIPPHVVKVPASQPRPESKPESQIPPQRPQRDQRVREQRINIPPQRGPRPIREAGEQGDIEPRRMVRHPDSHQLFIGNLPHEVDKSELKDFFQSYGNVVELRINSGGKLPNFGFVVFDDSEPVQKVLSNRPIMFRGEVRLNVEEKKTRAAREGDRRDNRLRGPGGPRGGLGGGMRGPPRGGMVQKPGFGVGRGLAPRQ
Technique: RNA Bind-n-Seq
Form: RNA
Sample: in vitro
Tested at: 1 µM
Notes: whole 134-nt RNA, ends assumed
Added: 150 mM KCl
Relative to: input library
Direction: higher = stronger binding
| Strand | log2 enrichment |
| --- | --- |
| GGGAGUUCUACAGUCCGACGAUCCCUGUGCUACACAUCGUAUGUACCGAAUCGGGUUUUUGGGAAAAAAAGGGUUUUUUUGGGAAAGUAUUAUGUUACGCCGUUCGGAUCUGCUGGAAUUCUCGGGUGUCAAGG | -1.88 |
| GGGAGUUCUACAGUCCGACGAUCCAAGUCCUGUGCUACACAUCGUAUGUACCGAAUCGGCCCGGGGCCCGGCCCGGGGAAAGUAUUAUGUUACGCCGUUCGGAUCUGCACUUCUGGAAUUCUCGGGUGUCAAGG | -1.73 |
| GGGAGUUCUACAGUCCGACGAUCGCAGGAAGUAAAAACAAAUGGAAAUGCUUCGGAUAGUGGCAGGGGUGGGGGUUGCUAAGGAAAGGGUGGGACGGGAGUGGGUAAAGAGUUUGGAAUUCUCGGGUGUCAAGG | 1.82 |
| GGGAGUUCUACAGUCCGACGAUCCAAGUCCUGUGCUACACAUCGUAUGUACCGAAUCGGUUUGGAAAAAGGAAAAAGGAAAGUAUUAUGUUACGCCGUUCGGAUCUGCACUUCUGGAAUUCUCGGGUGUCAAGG | -1.75 |
| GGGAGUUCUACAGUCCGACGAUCUCAAGUCCUGUGCUACACAUCGUAUGUACCGAAUCGGUGGAAAAAAAGGAAAGGAAAGUAUUAUGUUACGCCGUUCGGAUCUGCACUUCCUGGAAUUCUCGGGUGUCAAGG | -1.4 |
| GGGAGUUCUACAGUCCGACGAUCUCCUGUGCUACACAUCGUAUGUACCGAAUCGGGGUUUUUGGGGUGGGGUUUUUUUGGGGAAAGUAUUAUGUUACGCCGUUCGGAUCUGCAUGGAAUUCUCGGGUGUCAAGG | 1.86 |
| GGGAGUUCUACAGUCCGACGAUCCAAGUCCUGUGCUACACAUCGUAUGUACCGAAUCGGUUUUGGGUUUUGGUUUUGGGAAAGUAUUAUGUUACGCCGUUCGGAUCUGCACUUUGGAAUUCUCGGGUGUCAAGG | -1.6 |
| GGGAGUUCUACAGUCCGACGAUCACCAUGCAGGUGGGCAUCUUUGGGAAGUGGGGCAAGGGGGGGAUAGGGAGGGAAAUAACACUUUGGGAACAGGUGGUCCCAGGUCGUUUCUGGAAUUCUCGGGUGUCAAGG | -1.5 |
| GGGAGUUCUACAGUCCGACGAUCUCAAGUCCUGUGCUACACAUCGUAUGUACCGAAUCGGGGCCCGGCCCGGGCCCGGAAAGUAUUAUGUUACGCCGUUCGGAUCUGCACUUCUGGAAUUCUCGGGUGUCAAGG | -2.07 |
| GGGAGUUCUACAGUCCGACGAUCGUCCUGUGCUACACAUCGUAUGUACCGAAUCGGCCCCCGGGGCCCCCGGGGCCCCCGGGAAAGUAUUAUGUUACGCCGUUCGGAUCUGCAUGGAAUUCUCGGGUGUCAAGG | -1.68 |
